Measurements gathered from unrelated publications.
Every numbered part comes from another study and shows a few of its results, in no order.

Sample 1 — technique: RNA Bind-n-Seq; molecule type: RNA; sample: in vitro; concentration: not given; relative to: input RNA pool; reading: higher = stronger binding
Target: RING finger protein unkempt homolog, zinc fingers 1-6, GST-SBP tag (UNK, Homo sapiens, UniProt Q9C0B0, residues 30-357)
Sequence of UniProt Q9C0B0 (30-357, looked up): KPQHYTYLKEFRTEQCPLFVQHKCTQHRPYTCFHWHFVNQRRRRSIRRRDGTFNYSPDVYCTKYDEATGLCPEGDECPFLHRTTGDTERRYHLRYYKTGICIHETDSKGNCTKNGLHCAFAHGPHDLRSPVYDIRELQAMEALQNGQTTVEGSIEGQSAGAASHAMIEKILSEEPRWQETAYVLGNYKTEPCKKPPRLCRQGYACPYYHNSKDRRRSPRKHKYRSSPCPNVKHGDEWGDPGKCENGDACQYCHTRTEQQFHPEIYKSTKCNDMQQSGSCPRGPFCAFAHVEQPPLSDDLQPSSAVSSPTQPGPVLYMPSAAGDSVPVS
Notes: RNA with constant flanks, human and mouse sites, ends assumed
Sequence | bound/input enrichment [ratio]
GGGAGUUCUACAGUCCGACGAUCAGGCGGAGAGAACUGGCACUCUUCUCGGAUGACCGUUCACGGACAGUACAAUACCACAUAUAUAGUGUACACACACAUACAAAUGUGUCGAUGCCCAUUCACAAACAGUACAGUACACGCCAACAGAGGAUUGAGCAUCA | 0.142
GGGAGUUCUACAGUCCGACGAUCACCCAAGUUGGAGUCAUUCGUUGCCCAGUUUGCAGCCAAGAAUGUGCAGAGAGACACAUCAUAGAUAACUUUUUUGUGAAGGACACUACUGAGGUUCCCAGCAGUACAGUAGAAAAGUCACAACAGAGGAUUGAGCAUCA | 1.36
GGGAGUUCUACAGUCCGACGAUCAAUUCCCAGAUAAGGCUUUUGCUGAGAGAUGGAAUGAGAAUGUUCACUGUCUCUCUGAAGAUUCAACUGUGCUUGAAGUCCUACAGAAACAUUUCAGUGUCAACAAAAACUUGCAGUCAUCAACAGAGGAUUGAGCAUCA | 0.113
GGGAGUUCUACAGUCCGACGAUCGAGAUGACGCUGGCCCAGCUAUUUCUACAGUCUGAAGCUGCUUAUUGCUGUGUCAGUGAAUUAGGAGAGCUUGGGAAGGUCCAAUUUCGGGAUUUAAAUCCAGAUGUGAAUGUUUUCCAGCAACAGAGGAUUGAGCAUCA | 0.172
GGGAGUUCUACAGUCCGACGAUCUUUAAUGUGAUGAUGUAAUUGAUGGUUUUUUAUUAUUGUGGUAGGCCUUUUAACAUUUUGUUCUUACACAUACAGUUUUAUGCUCUUUUUUACUCAUUGAAAUGUCAUGUGUUGUCUGAUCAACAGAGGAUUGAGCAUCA | 0.549
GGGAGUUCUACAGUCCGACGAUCCAAAAGCCAGUGGCACUGAGCACUGGUGGAAGAUCCACGAGGCCUGCAUGCUUGCUCUAGGCUCUGUGAAGUCUAUCAUCACUGACAGUGUGAAAAAUGGCAGGAUCCAUUUUGAUAUGCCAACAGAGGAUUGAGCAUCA | 0.101

Sample 2 — technique: protein-binding microarray; molecule type: double-stranded DNA, one strand shown; sample: in vitro; concentration: 250 nM; notes: 60-bp whole probe; added: salmon DNA 0.4 mg/ml; relative to: random background probes; reading: higher = stronger binding; all sequences stand within: GCCTAGCAC … GTCTTGATTCGCTTGACGCTGCTG
Target: Interferon regulatory factor 5, full length, phosphomimetic (IRF5, Homo sapiens, UniProt Q13568-2, residues 1-514, K96S/S451D/S453D/S456D/S462D)
Sequence | log fluorescence [z-score]
TTAGGTCTCGGTATCGGTGAGTGCTAG | 2.95
TTAGATTCCAGTTCCGATTAGTGCTAG | 1.24
TCAGTCTTCCCCATCTTACTGTGCTAG | 0.151
GACGATATCAGTAGCGAGACGTGCTAG | 0.743
TCAAAAATAGAAACTCGTACTGTGCTA | 1.17
TCACCTTTTTTGTTGTTACTGTGCTAG | 1.06

Sample 3 — technique: protein binding microarray; molecule type: double-stranded DNA, one strand shown; sample: in vitro; concentration: not given; relative to: not given; reading: higher = stronger binding
Target: Histone acetyltransferase KAT6A, both winged helices, GST fusion (KAT6A, Homo sapiens, UniProt Q92794, residues 1-181)
Notes: 8-mer, flanks averaged, mean of 2 arrays, mostly near background
Residues (chain): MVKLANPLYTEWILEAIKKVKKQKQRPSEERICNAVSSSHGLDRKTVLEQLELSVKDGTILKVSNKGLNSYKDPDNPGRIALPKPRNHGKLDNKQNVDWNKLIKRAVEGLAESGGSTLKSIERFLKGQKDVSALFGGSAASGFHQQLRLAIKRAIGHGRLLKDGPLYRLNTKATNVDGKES
Sequence | E-score
AACGACAG | -0.0868
GCAGTTGA | -0.0816
AGCTTCCC | -0.0054
AAGCGGCT | 0.257
GTAACCAC | -0.0337

Further values, each from its own experiment
Molecule | target | test | system | setting | how to read | quantity | value
PhoQ, residues 284 288 289 292 302 303 ALASRC | PhoP, residues 12 14 15 18 19 AWHSL (Escherichia coli, UniProt P23836) | Sort-seq, measured: YFP reporter | E. coli | PhoQ-PhoP variant library, added: 10 µM Mg2+ | relative to: high Mg2+ state, higher = stronger signaling | fold induction | 1.95

Excerpt of the above (sample 2):
Sequence | log fluorescence [z-score]
GACGATATCAGTAGCGAGACGTGCTAG | 0.743
TCAAAAATAGAAACTCGTACTGTGCTA | 1.17
